Published values from different studies.
Every numbered part comes from another study and shows a few of its results, in no order. Changes are numbered by the printed parent chain.
Sequence of UniProt P36894 (whole entry, looked up): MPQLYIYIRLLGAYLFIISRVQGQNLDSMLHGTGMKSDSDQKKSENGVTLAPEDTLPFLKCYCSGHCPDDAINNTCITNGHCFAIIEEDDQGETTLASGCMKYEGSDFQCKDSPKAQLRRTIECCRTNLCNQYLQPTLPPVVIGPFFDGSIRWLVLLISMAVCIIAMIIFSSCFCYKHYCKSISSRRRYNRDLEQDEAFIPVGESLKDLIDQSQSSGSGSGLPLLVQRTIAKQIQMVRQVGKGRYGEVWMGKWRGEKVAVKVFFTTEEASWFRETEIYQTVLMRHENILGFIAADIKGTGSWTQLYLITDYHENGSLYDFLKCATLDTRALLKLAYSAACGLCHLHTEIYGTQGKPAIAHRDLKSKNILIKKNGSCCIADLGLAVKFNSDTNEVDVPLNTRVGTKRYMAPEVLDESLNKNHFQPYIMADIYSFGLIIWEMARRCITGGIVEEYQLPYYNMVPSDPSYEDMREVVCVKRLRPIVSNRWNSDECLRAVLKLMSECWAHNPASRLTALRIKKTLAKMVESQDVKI
Sequence of UniProt Q13153 (whole entry, looked up): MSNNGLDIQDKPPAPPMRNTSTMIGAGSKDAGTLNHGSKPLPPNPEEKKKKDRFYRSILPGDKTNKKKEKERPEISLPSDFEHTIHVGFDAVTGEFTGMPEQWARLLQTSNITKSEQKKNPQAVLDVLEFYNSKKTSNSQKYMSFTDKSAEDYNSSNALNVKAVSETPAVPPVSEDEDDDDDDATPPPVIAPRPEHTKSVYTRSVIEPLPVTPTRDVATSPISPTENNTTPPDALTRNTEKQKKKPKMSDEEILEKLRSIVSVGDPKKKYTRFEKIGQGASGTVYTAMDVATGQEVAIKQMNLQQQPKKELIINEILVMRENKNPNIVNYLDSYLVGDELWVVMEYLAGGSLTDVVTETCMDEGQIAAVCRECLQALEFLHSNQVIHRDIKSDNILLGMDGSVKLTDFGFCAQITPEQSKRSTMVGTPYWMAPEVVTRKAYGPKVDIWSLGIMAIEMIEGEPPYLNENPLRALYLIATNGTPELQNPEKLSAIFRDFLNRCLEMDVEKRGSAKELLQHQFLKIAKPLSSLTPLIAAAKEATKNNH
Sequence of UniProt P42336 (whole entry, looked up): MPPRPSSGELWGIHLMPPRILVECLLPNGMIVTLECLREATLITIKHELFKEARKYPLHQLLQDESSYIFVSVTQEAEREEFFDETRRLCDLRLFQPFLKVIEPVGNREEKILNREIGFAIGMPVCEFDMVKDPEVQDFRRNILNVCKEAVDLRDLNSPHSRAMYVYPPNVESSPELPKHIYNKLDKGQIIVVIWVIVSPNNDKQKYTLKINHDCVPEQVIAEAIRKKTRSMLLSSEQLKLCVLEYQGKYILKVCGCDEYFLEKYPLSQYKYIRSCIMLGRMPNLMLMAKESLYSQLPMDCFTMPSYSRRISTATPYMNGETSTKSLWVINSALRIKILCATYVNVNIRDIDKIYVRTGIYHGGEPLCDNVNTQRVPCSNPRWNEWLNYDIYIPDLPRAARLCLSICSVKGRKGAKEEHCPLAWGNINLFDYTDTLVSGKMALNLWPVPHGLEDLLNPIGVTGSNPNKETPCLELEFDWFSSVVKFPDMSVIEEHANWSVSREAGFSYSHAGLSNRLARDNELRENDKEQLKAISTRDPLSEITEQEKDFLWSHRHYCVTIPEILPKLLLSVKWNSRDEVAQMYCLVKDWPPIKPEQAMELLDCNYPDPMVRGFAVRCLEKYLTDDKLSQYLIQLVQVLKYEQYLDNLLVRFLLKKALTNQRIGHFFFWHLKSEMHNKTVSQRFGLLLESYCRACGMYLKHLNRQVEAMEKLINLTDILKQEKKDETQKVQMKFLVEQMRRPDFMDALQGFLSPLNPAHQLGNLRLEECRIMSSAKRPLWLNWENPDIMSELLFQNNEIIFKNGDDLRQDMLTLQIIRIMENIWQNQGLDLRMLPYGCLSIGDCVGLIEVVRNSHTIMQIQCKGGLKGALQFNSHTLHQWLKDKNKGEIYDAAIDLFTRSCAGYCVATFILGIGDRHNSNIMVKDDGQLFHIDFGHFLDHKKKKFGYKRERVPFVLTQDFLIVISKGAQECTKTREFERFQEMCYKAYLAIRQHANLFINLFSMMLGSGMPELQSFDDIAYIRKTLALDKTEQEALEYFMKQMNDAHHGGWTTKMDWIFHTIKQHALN
Sequence of UniProt Q9UBS0 (whole entry, looked up): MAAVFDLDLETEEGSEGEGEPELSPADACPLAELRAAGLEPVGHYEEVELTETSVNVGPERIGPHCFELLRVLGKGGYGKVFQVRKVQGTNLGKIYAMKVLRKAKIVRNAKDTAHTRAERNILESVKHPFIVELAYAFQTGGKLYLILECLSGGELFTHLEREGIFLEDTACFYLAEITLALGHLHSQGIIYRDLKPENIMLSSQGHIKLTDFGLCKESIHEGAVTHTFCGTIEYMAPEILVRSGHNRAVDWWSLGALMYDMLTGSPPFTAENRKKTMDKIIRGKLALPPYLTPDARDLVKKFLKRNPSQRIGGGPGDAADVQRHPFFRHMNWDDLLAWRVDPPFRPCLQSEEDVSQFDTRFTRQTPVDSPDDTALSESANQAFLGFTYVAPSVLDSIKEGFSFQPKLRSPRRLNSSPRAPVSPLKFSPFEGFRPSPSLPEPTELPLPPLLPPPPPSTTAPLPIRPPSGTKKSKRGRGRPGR
Sequence of UniProt P07947 (whole entry, looked up): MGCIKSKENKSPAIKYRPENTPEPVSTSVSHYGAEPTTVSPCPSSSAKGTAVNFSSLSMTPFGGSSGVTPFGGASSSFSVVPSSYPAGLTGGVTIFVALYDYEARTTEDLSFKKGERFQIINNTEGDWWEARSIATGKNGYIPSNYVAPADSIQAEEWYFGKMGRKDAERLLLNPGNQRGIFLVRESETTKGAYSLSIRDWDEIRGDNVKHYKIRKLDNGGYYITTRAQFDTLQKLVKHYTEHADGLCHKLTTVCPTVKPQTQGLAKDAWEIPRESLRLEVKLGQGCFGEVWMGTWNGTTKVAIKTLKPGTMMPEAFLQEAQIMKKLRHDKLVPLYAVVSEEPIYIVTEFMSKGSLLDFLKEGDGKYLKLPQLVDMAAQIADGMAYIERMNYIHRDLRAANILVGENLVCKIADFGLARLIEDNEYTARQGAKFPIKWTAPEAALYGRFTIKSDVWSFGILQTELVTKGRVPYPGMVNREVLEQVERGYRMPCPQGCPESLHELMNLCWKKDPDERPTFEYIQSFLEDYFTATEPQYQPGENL
Sequence of UniProt O60674 (whole entry, looked up): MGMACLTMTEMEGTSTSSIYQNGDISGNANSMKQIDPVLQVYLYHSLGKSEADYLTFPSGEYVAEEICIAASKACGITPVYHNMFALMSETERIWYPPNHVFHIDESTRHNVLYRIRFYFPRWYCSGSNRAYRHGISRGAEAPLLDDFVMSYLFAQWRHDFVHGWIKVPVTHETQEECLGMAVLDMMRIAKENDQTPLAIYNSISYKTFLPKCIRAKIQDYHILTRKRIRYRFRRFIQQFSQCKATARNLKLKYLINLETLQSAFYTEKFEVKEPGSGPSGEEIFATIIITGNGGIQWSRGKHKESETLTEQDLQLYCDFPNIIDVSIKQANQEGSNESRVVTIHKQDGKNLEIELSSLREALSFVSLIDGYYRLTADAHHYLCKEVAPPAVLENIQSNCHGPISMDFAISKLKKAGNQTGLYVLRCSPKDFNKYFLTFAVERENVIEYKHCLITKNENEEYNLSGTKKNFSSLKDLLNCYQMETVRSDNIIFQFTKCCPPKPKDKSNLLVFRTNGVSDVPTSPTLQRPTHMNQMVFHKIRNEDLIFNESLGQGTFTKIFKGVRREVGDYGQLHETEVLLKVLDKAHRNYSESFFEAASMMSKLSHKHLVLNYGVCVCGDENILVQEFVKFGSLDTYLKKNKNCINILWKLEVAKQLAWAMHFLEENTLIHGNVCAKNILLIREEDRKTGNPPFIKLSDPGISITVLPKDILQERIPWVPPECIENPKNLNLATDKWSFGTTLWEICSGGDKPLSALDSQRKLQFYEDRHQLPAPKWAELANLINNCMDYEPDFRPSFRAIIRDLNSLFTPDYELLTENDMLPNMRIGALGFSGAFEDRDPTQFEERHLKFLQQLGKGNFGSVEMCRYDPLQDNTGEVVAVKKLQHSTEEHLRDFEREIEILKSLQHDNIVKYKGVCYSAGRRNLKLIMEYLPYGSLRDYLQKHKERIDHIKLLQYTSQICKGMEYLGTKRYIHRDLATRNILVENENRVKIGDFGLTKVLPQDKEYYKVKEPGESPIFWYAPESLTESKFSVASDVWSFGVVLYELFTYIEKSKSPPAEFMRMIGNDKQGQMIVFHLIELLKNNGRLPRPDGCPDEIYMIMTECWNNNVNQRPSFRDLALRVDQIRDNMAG
Sequence of UniProt Q96SB4 (whole entry, looked up): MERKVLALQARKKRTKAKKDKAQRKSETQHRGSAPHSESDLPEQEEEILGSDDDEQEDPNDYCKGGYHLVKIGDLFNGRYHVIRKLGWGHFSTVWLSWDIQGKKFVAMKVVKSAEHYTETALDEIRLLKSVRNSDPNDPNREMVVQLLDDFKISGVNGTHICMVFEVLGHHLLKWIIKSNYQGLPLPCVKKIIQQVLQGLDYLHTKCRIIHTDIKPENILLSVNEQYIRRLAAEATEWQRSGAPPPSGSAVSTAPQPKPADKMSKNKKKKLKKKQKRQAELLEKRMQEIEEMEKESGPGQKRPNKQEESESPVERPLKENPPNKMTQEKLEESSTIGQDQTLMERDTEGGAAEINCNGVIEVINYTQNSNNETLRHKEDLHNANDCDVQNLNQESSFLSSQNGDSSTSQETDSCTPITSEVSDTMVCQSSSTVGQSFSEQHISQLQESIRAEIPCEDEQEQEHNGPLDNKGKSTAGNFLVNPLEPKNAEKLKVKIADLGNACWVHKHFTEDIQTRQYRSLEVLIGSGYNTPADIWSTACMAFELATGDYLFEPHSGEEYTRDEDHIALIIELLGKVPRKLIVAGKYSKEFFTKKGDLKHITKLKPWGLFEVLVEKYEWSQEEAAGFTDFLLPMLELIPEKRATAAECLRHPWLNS

Series 1 — observed: enzyme activity; action: inhibitor; tested at: 0.5 µM; baseline: control
SMILES: CS(=O)(=O)CCNCc1ccc(-c2ccc3ncnc(Nc4ccc(OCc5cccc(F)c5)c(Cl)c4)c3c2)o1
target | remaining activity [%]
PAK1 (Homo sapiens, UniProt Q13153) | 110
ERBB2 (Homo sapiens, UniProt P04626) | 9.57
CLK1 (Homo sapiens, UniProt P49759) | 107
YES1 (Homo sapiens, UniProt P07947) | 84.7
MAP3K20 (Homo sapiens, UniProt Q9NYL2) | 96.7
SGK2 (Homo sapiens, UniProt Q9HBY8) | 106
MUSK (Homo sapiens, UniProt O15146) | 96.5
MELK (Homo sapiens, UniProt Q14680) | 88.5
JAK1 (Homo sapiens, UniProt P23458) | 98
PRKCZ (Homo sapiens, UniProt Q05513) | 79.7
SRPK1 (Homo sapiens, UniProt Q96SB4) | 100
JAK2 (Homo sapiens, UniProt O60674) | 101
RPS6KB2 (Homo sapiens, UniProt Q9UBS0) | 100
TEC (Homo sapiens, UniProt P42680) | 101

Series 2 — method: competition with immobilised ligand; tested at: 0.1 µM
Structure (SMILES): CC(C)CC(=O)N1CCc2nc(-c3ccc(Br)cc3)nc(N(C)Cc3ccccc3)c2C1
target | observed | remaining binding [%]
PIK3CA (Homo sapiens, UniProt P42336) | cell-free assay | 77
BMPR1A (Homo sapiens, UniProt P36894) | binding | 93
MYLK3 (Homo sapiens, UniProt Q32MK0) | cell-free assay | 98
Ribosomal protein S6 kinase alpha-2, N-terminal kinase domain (RPS6KA2, Homo sapiens, UniProt Q15349) | cell-free assay | 100

Series 3 — method: protein binding microarray; form: double-stranded DNA, one strand shown; medium: in vitro; tested at: not given; baseline: not given; direction: higher = stronger binding
Target: Histone acetyltransferase KAT6A, both winged helices, GST fusion (KAT6A, Homo sapiens, UniProt Q92794, residues 1-181)
Notes: 8-mer, flanks averaged, mean of 2 arrays, mostly near background
Target sequence (chain): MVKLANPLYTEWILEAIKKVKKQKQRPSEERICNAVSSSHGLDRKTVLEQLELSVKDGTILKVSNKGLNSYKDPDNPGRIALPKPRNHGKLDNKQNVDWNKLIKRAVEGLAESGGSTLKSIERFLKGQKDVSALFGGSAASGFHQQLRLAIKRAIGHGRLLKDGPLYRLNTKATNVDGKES
Sequence | E-score
ATAGGACA | -0.0685
ACGCGACT | 0.0454
CTACAGAG | -0.082
GATTTTTA | -0.0538
ACGATACA | -0.0978
CAGGTGGG | -0.166
ACTGTTTG | -0.0784
AGTTGTGG | -0.114

Series 4 — target: JUND, bZIP domain (human); method: DHFR protein complementation; medium: yeast; baseline: wild-type JUN-FOS pair; direction: higher = stronger binding
Notes: single substitutions, most at no-binding floor
Starting sequence: JUN, bZIP domain (human); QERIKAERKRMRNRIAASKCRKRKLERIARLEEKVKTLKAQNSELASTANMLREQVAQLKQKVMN; partner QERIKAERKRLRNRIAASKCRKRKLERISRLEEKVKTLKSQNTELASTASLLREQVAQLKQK
Change | binding fitness [natural log]
K34S | -0.592
A40R | -0.633
T37S | -0.638
Q41M | -0.776
T37W | -0.67
R30T | -0.542
A46R | -0.585
M51K | -0.541

Mixed results
SMILES | medium | endpoint | result
CCOC(=O)[C@@H]1CSCC(=O)N[C@@H](CC)C(=O)N(C)[C@@H](C)C(=O)N[C@H](CC(C)C)C(=O)N2CCC[C@@H]2C(=O)N(CC(C)C)CC(=O)N[C@H](CC(C)C)C(=O)N(C)[C@@H](C)C(=O)N[C@@H](CC(C)C)C(=O)N1C | hydrocarbon/water | logD | 1.85

Excerpt of the above (series 1):
target | remaining activity [%]
MELK (Homo sapiens, UniProt Q14680) | 88.5
JAK2 (Homo sapiens, UniProt O60674) | 101
